Assay results from different studies.
Every numbered part comes from another study and shows a few of its results, in no order. Changes are numbered by the printed parent chain.

Block 1
Target: Hepatocyte nuclear factor 3-beta, forkhead domain (FOXA2, Homo sapiens, UniProt Q9Y261, residues 142-269)
Method: protein-binding microarray
Molecule type: double-stranded DNA, one strand shown
Sample: in vitro
Concentration: not given
Setting: k-mer, scored over probes, only values ≥0.25
Reading: higher = stronger binding
Target sequence (chain): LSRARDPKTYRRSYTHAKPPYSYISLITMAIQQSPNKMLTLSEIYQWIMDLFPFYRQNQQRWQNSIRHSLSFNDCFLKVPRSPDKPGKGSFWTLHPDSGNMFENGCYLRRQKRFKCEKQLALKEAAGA
The E-score of `GATCAATA` is reported as 0.266.
The E-score of `GTTACAAA` is reported as 0.285.
The E-score of `TAATGCTA` is reported as 0.259.
For `ATATTCCA`, the E-score was 0.38.
`AGACAAAT` gave an E-score of 0.252.
With `ATCGTAAA` the E-score was 0.26.

Block 2
Target: CCNB2, cyclin fold, Cln2 fusion (human)
Method: yeast growth competition, sequencing
Sample: yeast
Setting: weak parent motif
Baseline: not given
Reading: higher = stronger binding
Parent: PKN2 docking peptide (human); VSAVRKLDFSDTM
Under “normalised enrichment score”, `VSAVRKLDFTDTM [S10T]` is recorded as 0.66.
`VMAVRKLDFSDTM [S2M]` — result for “normalised enrichment score”: 0.406.
For `VSEVRKLDFSDTM [A3E]`, “normalised enrichment score” read 0.295.
`VSAVRKLDFSQTM [D11Q]`: “normalised enrichment score” 0.235.

Block 3
Target: Histone acetyltransferase KAT6A, winged helix 2, GST fusion (KAT6A, Homo sapiens, UniProt Q92794, residues 85-181)
Method: protein binding microarray
Molecule type: double-stranded DNA, one strand shown
Sample: in vitro
Concentration: not given
Setting: 8-mer, flanks averaged, mean of 2 arrays, mostly near background
Baseline: not given
Reading: higher = stronger binding
Target sequence (chain): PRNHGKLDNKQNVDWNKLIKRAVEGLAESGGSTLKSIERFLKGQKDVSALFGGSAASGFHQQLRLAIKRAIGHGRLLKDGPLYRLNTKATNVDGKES
With `CAGTTGGC` the E-score was -0.0105.
The E-score of `ACCGCCGC` is reported as 0.145.
With `AAATGCTG` the E-score was 0.0634.
`CGCGCGGA` has an E-score of 0.237.
With `AATTAACA` the E-score was 0.0501.
The E-score of `CATTCAGC` is reported as -0.147.
For `ACAGTGGG`, the E-score was -0.015.

Mixed results
With `PhoQ, residues 284 288 289 292 302 303 SSCCRF` the fold induction was 6.79 (PhoP, residues 12 14 15 18 19 SPWRL (Escherichia coli, UniProt P23836); Sort-seq, item: YFP reporter; E. coli; PhoQ-PhoP variant library, added: 10 µM Mg2+; baseline: high Mg2+ state, higher = stronger signaling).

Excerpt of the above (block 1):
`AGACAAAT` gave an E-score of 0.252.
With `ATCGTAAA` the E-score was 0.26.
